Measured values from different studies.
Numbered parts are unrelated; each lists some results of a single study.

Study 1 — method: protein-binding microarray; molecule type: double-stranded DNA, one strand shown; sample: in vitro; tested at: 250 nM; notes: 60-bp whole probe; together with: salmon DNA 0.4 mg/ml; reference: random background probes; reading: higher = stronger binding; shared flanks, not repeated: GCCTAGCAC … GTCTTGATTCGCTTGACGCTGCTG
Target: Interferon regulatory factor 7, full length, phosphomimetic (IRF7, Homo sapiens, UniProt Q92985, residues 1-503, S101K/S471D/S472D/S475D/S476D/S477D/S483D/S484D/S487D)
Construct (chain): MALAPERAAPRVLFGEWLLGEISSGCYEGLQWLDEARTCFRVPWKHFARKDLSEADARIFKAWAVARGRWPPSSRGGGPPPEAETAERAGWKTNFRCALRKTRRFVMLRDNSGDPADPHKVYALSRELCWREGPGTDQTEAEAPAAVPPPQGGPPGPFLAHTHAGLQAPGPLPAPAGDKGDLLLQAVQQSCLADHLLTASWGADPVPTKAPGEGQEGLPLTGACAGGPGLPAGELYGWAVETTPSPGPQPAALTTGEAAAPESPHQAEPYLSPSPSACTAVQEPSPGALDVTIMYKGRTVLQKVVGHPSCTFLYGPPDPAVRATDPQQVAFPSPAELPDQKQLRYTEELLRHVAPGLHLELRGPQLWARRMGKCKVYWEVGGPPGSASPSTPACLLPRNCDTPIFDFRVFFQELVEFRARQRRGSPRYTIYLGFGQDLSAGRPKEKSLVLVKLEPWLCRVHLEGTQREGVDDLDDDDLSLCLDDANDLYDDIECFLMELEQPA
| Strand | log fluorescence [z-score] |
| --- | --- |
| GACGGACTGCTTCTCCTGCCGTGCTAG | -0.201 |
| ACCCGAGTCCCTATCTCCTCGTGCTAG | 0.355 |
| TTAGGTTTCCTACTTCTTTAGTGCTAG | 1.69 |
| TCATTTTTTCTAATTGAACTGTGCTAG | 2.2 |
| TTAGGACTGGGGCTCGGTTAGTGCTAG | 0.389 |
| AACCGCCTCTCCCTTAGACGGTGCTAG | 0.446 |
| GTCGGTTTCCTACTGCTGACGTGCTAG | 2.71 |
| GACGTACTGGGGTTTCGGGACGTGCTA | 1.17 |
| TTACAACTGAGTATCGATTAGTGCTAG | 0.646 |
| TCACTACTGTATTTGGCACTGTGCTAG | -0.159 |
| GACCGTATCCTACTGCTGACGTGCTAG | 0.601 |
| GCCGATTTCAGTCTCGAGACGTGCTAG | 1.02 |
| GACGATCACAGTATCGAGACGTGCTAG | 0.0592 |
| TCATTTTTTTTTTTTCTACTGTGCTAG | 1.07 |
| TTAGGTCTCGGTATCGGTTCGTGCTAG | 4.75 |
| TTAGGTTCCCTACTGCTTTAGTGCTAG | 0.662 |

Study 2 — method: protein-binding microarray; molecule type: double-stranded DNA, one strand shown; sample: in vitro; tested at: not given; reading: higher = stronger binding
Target: Protein C-ets-1 (ETS1, Homo sapiens, UniProt P14921, residues 1-441, Y397A, full length assumed)
Notes: k-mer, scored over probes, only values ≥0.25
Construct (chain): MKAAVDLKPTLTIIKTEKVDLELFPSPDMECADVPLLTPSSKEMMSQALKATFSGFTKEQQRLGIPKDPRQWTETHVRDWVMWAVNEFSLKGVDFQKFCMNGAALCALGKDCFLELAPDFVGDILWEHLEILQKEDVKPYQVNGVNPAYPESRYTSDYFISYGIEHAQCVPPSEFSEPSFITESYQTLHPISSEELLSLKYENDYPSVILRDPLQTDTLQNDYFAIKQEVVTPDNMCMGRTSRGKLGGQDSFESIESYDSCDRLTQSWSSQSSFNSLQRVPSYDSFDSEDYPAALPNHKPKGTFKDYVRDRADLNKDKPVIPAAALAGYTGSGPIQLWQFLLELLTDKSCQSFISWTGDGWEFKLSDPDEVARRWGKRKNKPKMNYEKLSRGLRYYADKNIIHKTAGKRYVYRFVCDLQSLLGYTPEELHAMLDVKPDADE
| Strand | E-score |
| --- | --- |
| CAACGTTA | 0.27 |
| GAAACGAC | 0.282 |
| CAATTACA | 0.25 |
| GTCGGAAA | 0.319 |
| GTTGCGTA | 0.265 |
| ACGACATC | 0.267 |
| CATTGTCG | 0.29 |
| CAACTTCC | 0.425 |
| CCCCGCCC | 0.348 |
| AATGGCAC | 0.29 |
| GCGGGGTA | 0.329 |
| ACCGACAT | 0.366 |
| ATTGTCAC | 0.303 |
| AACGCAAC | 0.349 |
| ACATATAC | 0.279 |
| TCCTGACA | 0.278 |
| GTTCCGGA | 0.25 |
| GACATGTA | 0.315 |
| GCGGACAA | 0.271 |
| GATTGGCA | 0.282 |

Study 3 — method: universal PBM; molecule type: double-stranded DNA, one strand shown; sample: in vitro; tested at: 600 nM; reading: higher = stronger binding
Target: Sal-like protein 4, full length isoform A (SALL4, Homo sapiens, UniProt Q9UJQ4, residues 1-1053)
UniProt Q9UJQ4, sequence (whole entry, looked up): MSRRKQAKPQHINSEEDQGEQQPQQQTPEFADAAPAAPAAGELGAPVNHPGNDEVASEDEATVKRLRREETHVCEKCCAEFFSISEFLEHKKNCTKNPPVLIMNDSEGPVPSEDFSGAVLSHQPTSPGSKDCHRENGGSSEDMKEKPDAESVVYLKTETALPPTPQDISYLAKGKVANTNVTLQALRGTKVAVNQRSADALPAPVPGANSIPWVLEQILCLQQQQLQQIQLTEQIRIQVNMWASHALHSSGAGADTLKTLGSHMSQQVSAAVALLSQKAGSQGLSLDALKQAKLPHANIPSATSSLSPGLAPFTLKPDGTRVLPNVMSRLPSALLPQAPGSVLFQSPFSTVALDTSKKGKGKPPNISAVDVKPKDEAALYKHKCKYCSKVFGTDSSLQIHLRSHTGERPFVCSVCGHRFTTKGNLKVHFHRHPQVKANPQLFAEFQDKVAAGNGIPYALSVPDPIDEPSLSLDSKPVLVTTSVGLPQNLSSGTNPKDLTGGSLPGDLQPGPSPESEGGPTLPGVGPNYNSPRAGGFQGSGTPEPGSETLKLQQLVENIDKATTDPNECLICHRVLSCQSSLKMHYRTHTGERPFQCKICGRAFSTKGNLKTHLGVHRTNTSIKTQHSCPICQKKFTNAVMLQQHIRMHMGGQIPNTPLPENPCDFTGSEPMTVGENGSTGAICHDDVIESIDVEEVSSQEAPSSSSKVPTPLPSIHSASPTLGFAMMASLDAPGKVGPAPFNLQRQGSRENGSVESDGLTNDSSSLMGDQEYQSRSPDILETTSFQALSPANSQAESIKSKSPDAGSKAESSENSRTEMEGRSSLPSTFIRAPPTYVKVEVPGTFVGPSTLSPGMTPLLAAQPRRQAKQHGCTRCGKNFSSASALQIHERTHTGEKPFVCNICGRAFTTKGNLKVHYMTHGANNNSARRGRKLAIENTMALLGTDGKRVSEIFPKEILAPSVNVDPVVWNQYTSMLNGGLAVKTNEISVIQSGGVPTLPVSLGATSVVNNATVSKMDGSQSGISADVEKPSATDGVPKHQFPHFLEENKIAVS
Notes: 8-mer, flanks averaged, mean of replicates
| Strand | E-score |
| --- | --- |
| AGCACTAT | 0.1 |
| CGAGTTTC | -0.0109 |
| ATGACGAC | -0.0255 |
| CCTTCCTA | -0.0981 |
| CATGCGCG | -0.304 |
| GCTCTTTA | -0.13 |
| ATATGTCA | 0.294 |
| GGCCATTA | -0.0312 |
| AGAAACTC | 0.0297 |
| AGCAACCA | 0.0482 |
| ATAAAACC | 0.168 |
| CCGTAGGA | -0.202 |
| CTACTTCA | 0.0306 |
| CGCCGTTA | -0.0314 |
| CGCTATTC | 0.0891 |
| ATGAGTCA | 0.205 |
| CAGAGGGG | -0.351 |
| AAACGATT | 0.206 |
| AGGTAGGA | -0.0132 |
| CAGACACC | -0.153 |
| GATGATTA | 0.193 |
| AAAGCCGG | -0.165 |
| ACTAAAGG | 0.0493 |
| GATCCATC | -0.131 |

Study 4 — method: RNA Bind-n-Seq; molecule type: RNA; sample: in vitro; tested at: 365 nM; reference: no-protein control; reading: higher = stronger binding
Target: RNA binding protein fox-1 homolog 2, RRM domain, GST-SBP tag (RBFOX2, Homo sapiens, UniProt O43251-10, residues 100-194)
Notes: natural RNA segment, single round, ends assumed
Shared flanks, not repeated: GGGAGUUCUACAGUCCGACGAUC … UGGAAUUCUCGGGUGCCAA
Residues (chain): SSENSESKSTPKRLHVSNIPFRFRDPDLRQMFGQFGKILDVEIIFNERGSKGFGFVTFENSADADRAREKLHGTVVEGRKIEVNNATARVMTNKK
| Strand | RBNS enrichment (R) |
| --- | --- |
| CCUCAGAGCCAGCCAUUGCUGGUGUCUGGAGUCUCCCAGACCACUCACUGCUUCUUGCCAGUUAUGACUGUCAUUCCCUUCGCACCAGCUGUACCACUCCCAGAGGUCUG | 0.472 |
| AGCAGUGUGGUUACUUCUUUCUUCUGCCUCGACUCACAUGGCUUCUCCCCACGAAGGUCCCAGGGUGGCCAUUUAUACAAUCCAUUUCUGUCCUCUUUAUGGAAUGUAGU | 0.302 |
| AACUGCGACGAUUAAUUGUGGAUCUCCCCCUGCCCAUUGCCUGCUUGAGGGGCACCACUACUCCAGCCCAGAAGGAAAGGGGGGCAGCUCAGUGGCCCCAAGAGGGAGCU | 2.7 |
| UACAAUCACCGUGUAAGUUAUGGUCUAAACCUGUCCUUUUGAGAGAGAAAAAGAUACUGUUGAUAAUCCUGUCAGCUCCUUAGGCACUUCGGAGGCUGAGGCAGGAGAAU | 0.414 |
| UAGCACCUUUUUGCCACCUUGGUGAACAGAAAAUUGUAUUUUCCUGUCUUUCAUGGCUGAAAACAAAAGUAAUGGGAAUUUUAAAUACGUUUGCAGAAACUGCCCCUCCC | 0.353 |
| UCAGUAUUUGAUUUUUCCAGUGUUUGUUUUUUAAAAAACUGACAGGUGCUACAUUUCUAUCUGUUGGUUUCAAUUCUGCCAUAUUUCAUGUCUAGCCUUUAGAGUGGCCA | 0.678 |
| AAACAUUUCUAACCUUUGGUUUGCUGACAUGUGUAGUAACUCUCUAAAAUGUCUGGAGAUGGGCAAGGAAGAUGCAGGGCCUCUGAAUAGUAGAUGUGAGAACUUGGGUU | 0.878 |
| AAUUGCCAAUUGUUUUGCAGUACUUUAUUAUAUUGGGUGUCUUGUCUUUCUUGGGCUUUUAGUUAGCUGAUGAAUGAAUACAUUAGACACUUCUGGGUUUUAGUUGGGAU | 1.25 |
| AUGAAUGUCAACCCACAGCAGCCGGCUAGGCAAAUGAGGCAGAGGGACUCUGCUCAGCCCUCUGUAUAUCACUGUCAGGGUGGGUACGGCUCAUUGGUUCUGAUUUGCCC | 0.728 |
| GUUGCUUGUGUAAUAAAGCAUGUCCUUCGUAUGUCACAGUUUGGGGCAACGGAAGUCUUUUAGUGAUGGCUAAUGGGUCUGGGCAGCAUCCCUUCAUGAAUUUUUUUUUA | 2.46 |
| GCCCUGUUCCCUAAUAGAAACAUUCCCCUUGUUUUCCAGCAGUGGGUGGCUUCCUCGAACGAUUAAACAAACUAGGUGCUUGUAUAUAAUUUAUUACAGUUUACUCUACU | 0.4 |
| UCCCUGCCUUGUGGCAAAGGGGCCCCAAAAGAAAAGCUGCCCUUCCCCAAAUGUAAGGACCCAGGUACACUUUCACCCGUGGAAAGCAGUGUCUGUCGAGAGUCUGUUUC | 0.299 |

Study 5 — method: RNA Bind-n-Seq; molecule type: RNA; sample: in vitro; tested at: not given; notes: RNA with constant flanks, ends assumed; reference: input RNA pool; reading: higher = stronger binding
Target: RING finger protein unkempt homolog, zinc fingers 1-6, GST-SBP tag (UNK, Homo sapiens, UniProt Q9C0B0, residues 30-357)
Shared flanks, not repeated: GGGAGUUCUACAGUCCGACGAUC … CAACAGAGGAUUGAGCAUCA
Construct (chain): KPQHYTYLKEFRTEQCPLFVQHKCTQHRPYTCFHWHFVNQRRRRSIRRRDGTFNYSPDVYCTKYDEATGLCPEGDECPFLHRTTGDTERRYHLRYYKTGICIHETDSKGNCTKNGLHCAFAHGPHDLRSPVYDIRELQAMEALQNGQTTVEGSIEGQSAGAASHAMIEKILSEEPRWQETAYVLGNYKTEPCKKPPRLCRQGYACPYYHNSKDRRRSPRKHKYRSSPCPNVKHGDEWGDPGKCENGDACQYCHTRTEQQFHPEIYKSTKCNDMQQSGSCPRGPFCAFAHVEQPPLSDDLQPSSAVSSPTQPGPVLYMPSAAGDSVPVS
| Strand | bound/input enrichment [ratio] |
| --- | --- |
| UGUGGCCUUUCUGAGGAGAAAGCUGUGGAGAAGUUUGGGGAAGAAAAUAUUGAGGUUUACCACCGUUACUUUUGGCCAUUGGAAUGGACGAUUCCGUCAAGAGAUAACAACAAAUGUUAU | 0.146 |
| GAGGUACUUAUAAGACAUUUCCAAAGUCAAGUUAAUGAGCUGCAGAGUAAACAAGAGUCUCUCGCCGUUUCUGAAGUUCGAGAAGAAAUUCUACAGAAAGAGAUUACAAAACUCUUAGAA | 0.15 |
| CUUACCAAGCACUUGCUGAAGACAGUGUGUACCGAUAUCACUAACCUCAUGUUCAACUUCCCCGCCUCAGAUUUCCUCAUGGCAGUGGAGGAGCCUGCAGCCAUUACAAGUGAUAUAAGA | 0.24 |
| UGGAGUAGGUCUUAGAGUGUAACAGAUUGUUUUCCUGAGUUAUCCUCUAGGUGAGUAUGUUUCCGGACUAAACACCUUUUGCAGAUACUGAAAGUGCCUCCUUUUGUGGUAUACAAAACA | 0.104 |
| AACAAGACAGACUUGCUCGAGGAGAAAGUGCAAGUUGUUAGCAUCAAAGACUAUUUCCCCGAAUUUGAAGGGGACCCCCACUGCUUAAGAGACGUCCAAAAGUUUCUGGUGGAAUGCUUC | 0.203 |
| GGGGUUCUUGCUGCCGUUCUAAUAUUUUUUUAAGCAUAGACAGACUUAUAAUUAAUAUACGUCCGUCCGUGACAUUGAAACAGUCAACUCGGAAAUUAACUAUAAGACUUGUUCUAUUUA | 0.655 |
| UCUCUGUUCAGCUGUUAAUGCUGGGAUCCAUAUUUAGUUUUAUAAGCUUUUCCCUGUUUUCCGUUUUGUUUUGGGUUUUUUGGCUCAUGAAUUUUAUUUCUGUUUGUCGAUAAGAAAUGU | 25.1 |
| UAAAAAGUGUUUUGAAUUGUGUCUUAAUCUCUCCAUAUUCAACUAUUCUUCAUUUACAACAACCGUGACACCAGUAAUUAUGAGAGGCUGUCAUAUAUCAAAGCAGCUCAGGUGGGAUCA | 0.607 |
| ACUGCUCCAUCGAUCCCUUCACAUUUGUCUCCUGGUUUACGAGAUGUGGCUCUUCGUUGUUCCGAACUUCAACCUCAGGACAGACCUCCAUCAAGAGAGCUACUGAAGCAUCCAGUCUUU | 0.147 |
| GAGUGCCCUGUGUUUACACCGCCCGGAGGAGAGACGCUGGACCAGGUGAAAAUGCGUGGAACCGACUUUUUUGAAUUUCUUUGUCAACUAAUCCUGAAAGAAGCGGAUCAAAAAGAACAG | 0.085 |
| AGCGGCUACAAGACCCUGGGUUCACUCCCCAGAACCACCAGAGGGUAAACACCAGACCUCCCGGUAAAAAUGAUAAAGUUAUUUUCUUGUUAUACAGUUUAGAGUGUUGCCUUUCACAUU | 1.86 |

For quick reference, copied from above (study 3):
| Strand | E-score |
| --- | --- |
| AGGTAGGA | -0.0132 |
| CAGACACC | -0.153 |
| CGCCGTTA | -0.0314 |
| ACTAAAGG | 0.0493 |
| ATGACGAC | -0.0255 |
| AGCAACCA | 0.0482 |
| GGCCATTA | -0.0312 |
| CCGTAGGA | -0.202 |
